Assay results collected from several papers.
Protocols differ between the studies behind these lines. “And” joins repeats or separate records; there may be more than shown. ± gives the spread as reported.

Structure (SMILES)	target or system	test	system	setting	scale	endpoint	value
CCc1nn(C)c2nc(-c3ccc(C(=O)O)cc3)nc(NCc3ccccc3)c12	–	–	male CD-1 mouse, plasma	intravenous, 1 mg/kg, 2 h	–	concentration	159 ng/mL
C(#Cc1cncc(OC[C@@H]2CCN2)c1)c1ccccc1	–	–	male Sprague-Dawley rat, plasma	oral, 75 mg/kg, 4 h	–	concentration	360 ng/mL
CCOc1ccccc1-n1c(CN2CCNCC2)nc2ccccc2c1=O	–	–	C57BL/6 mouse, male, plasma	intraperitoneal, 3 mg/kg	–	AUC(0-t)	1.11 µM·h
O=C1NC2(CC2)COc2ncc(F)cc2[C@H]2COCCN2c2ccn3ncc1c3n2	–	–	Sprague-Dawley rat, female, serum	oral, 20 mg/kg/day, 4 weeks daily, end of recovery period	–	potassium	4.1 ± 0.24 mmol/L
COc1cnc2cccc(N3CCc4c(cc(Cn5ccnc5)cc4-c4cn(C)nc4C(F)(F)F)C3=O)c2c1	–	–	BALB/c nude mice, MV4-11 xenograft	intraperitoneal, 50 mg/kg, day 35	–	body weight	24.6 g and 22.6 g and 25.8 g and 24.3 g and 24.5 g
CC(C)[C@H](NC(=O)[C@@H](NC(=O)[C@H](CCCNC(=N)N)NC(=O)[C@H](CCCNC(=N)N)NC(=O)[C@H](CCCNC(=N)N)NC(=O)[C@H](CCC(N)=O)NC(=O)[C@H](CCCNC(=N)N)NC(=O)[C@H](CCCNC(=N)N)NC(=O)[C@H](CCCCN)NC(=O)[C@H](CCCCN)NC(=O)[C@H](CCCNC(=N)N)NC(=O)CN)[C@@H](C)O)C(=O)N[C@H](C(=O)N[C@@H](CO)C(=O)N1CCC[C@H]1C(=O)O)[C@@H](C)O	–	–	ICR mice, female, lung	intranasal, 10 mg/kg daily, 4 weeks	–	organ weight	0.342 ± 0.029 g
CC[C@H](C)[C@H](NC(=O)[C@H](CCCNC(=N)N)NC(=O)[C@H](CCCCN)NC(=O)[C@H](Cc1ccc(O)cc1)NC(=O)[C@H](CC(=O)O)NC(=O)[C@H](C)NC(=O)CNC(=O)CCOCCOCCOCCNC(=O)CN1CCN(CC(=O)O)CCN(CC(=O)O)CCN(CC(=O)O)CC1)C(=O)N[C@H](C(=O)N[C@H](C(=O)N[C@@H](CCCCN)C(=O)N[C@H](C(=O)N[C@@H](CC(N)=O)C(N)=O)C(C)C)C(C)C)[C@@H](C)O [copper-64 labelled]	–	ex vivo gamma counting	C57BL/6J male mice, B16-F10 tumour, liver	intravenous, 1.85 MBq, 5 min	–	tissue uptake	2.72 ± 0.203 %ID/g
CC[C@H](C)[C@@H]1NC(=O)[C@H](Cc2ccc(O)cc2)NC(=O)[C@@H](N)CSCSC[C@@H](C(=O)N2CCC[C@H]2C(=O)N[C@@H](CC(C)C)C(=O)NCC(N)=O)NC(=O)[C@H](CC(N)=O)NC(=O)[C@H](CCC(N)=O)NC1=O	–	–	phosphate buffer	0.1 mg/mL, pH 2.0, 40 °C	–	half-life	26.9 days
CN1Cc2cc(Cl)ccc2-n2c(nnc2C2CCN(c3cccc([18F])n3)CC2)C1	–	–	C57BL/6 mouse male, adrenal gland	intravenous, 3.7 MBq, 5 min	–	tissue uptake	10.3 ± 5.46 %ID/g
Cc1ccccc1-c1ccc(-c2nc(-c3ccc(CN(C)CCCC(=O)O)c([18F])c3)no2)cc1C(F)(F)F	–	–	rat, liver	1 h	–	tracer uptake	1.68 %ID/g
CCCCC[C@@H]1NC(=O)[C@@H](C)N(C)C(=O)[C@H](CCCCC)N(C)C(=O)[C@@H](C)N(C)C(=O)[C@H](CCCCC)N(C)C(=O)[C@@H](C)N(C)C(=O)[C@H](CCCCC)NC(=O)[C@@H](C)N(C)C1=O	–	PAMPA, HPLC-UV	–	500 µM, pH 7.4	–	log Papp	-5.42 ± 0.04
CC(C)(CCCC/C=C/CCCCCC(C)(C)C(=O)O)C(=O)O	–	–	beagle dog, both sexes	oral, dose not given, 0.25 h	–	plasma concentration	37000 ng/mL
CSCC[C@H](N)C(=O)N[C@@H](C)C(=O)N[C@@H](Cc1c[nH]c2ccccc12)C(=O)N[C@@H](Cc1c[nH]cn1)C(=O)N[C@@H](CC(=O)O)C(=O)N[C@@H](CC(=O)O)C(=O)N[C@@H](CCC(=O)O)C(=O)N[C@@H](CCC(=O)O)C(=O)N[C@@H](Cc1ccccc1)C(=O)N[C@@H](C)C(=O)N[C@@H](CCCNC(=N)N)C(=O)N[C@@H](CCCNC(=N)N)C(=O)N[C@@H](CCCNC(=N)N)C(=O)N[C@@H](CCCNC(=N)N)C(=O)NCCCCCC(=O)NCCCCC(NC(=O)CCCCCNC(=O)[C@H](CCCNC(=N)N)NC(=O)[C@H](CCCNC(=N)N)NC(=O)[C@H](CCCNC(=N)N)NC(=O)[C@H](CCCNC(=N)N)NC(=O)[C@H](C)NC(=O)[C@H](Cc1ccccc1)NC(=O)[C@H](CCC(=O)O)NC(=O)[C@H](CCC(=O)O)NC(=O)[C@H](CC(=O)O)NC(=O)[C@H](CC(=O)O)NC(=O)[C@H](Cc1c[nH]cn1)NC(=O)[C@H](Cc1c[nH]c2ccccc12)NC(=O)[C@H](C)NC(=O)[C@@H](N)CCSC)C(=O)NCCCCC(NC(=O)C(CCCCNC(=O)CCCCCNC(=O)[C@H](CCCNC(=N)N)NC(=O)[C@H](CCCNC(=N)N)NC(=O)[C@H](CCCNC(=N)N)NC(=O)[C@H](CCCNC(=N)N)NC(=O)[C@H](C)NC(=O)[C@H](Cc1ccccc1)NC(=O)[C@H](CCC(=O)O)NC(=O)[C@H](CCC(=O)O)NC(=O)[C@H](CC(=O)O)NC(=O)[C@H](CC(=O)O)NC(=O)[C@H](Cc1c[nH]cn1)NC(=O)[C@H](Cc1c[nH]c2ccccc12)NC(=O)[C@H](C)NC(=O)[C@@H](N)CCSC)NC(=O)CCCCCNC(=O)[C@H](CCCNC(=N)N)NC(=O)[C@H](CCCNC(=N)N)NC(=O)[C@H](CCCNC(=N)N)NC(=O)[C@H](CCCNC(=N)N)NC(=O)[C@H](C)NC(=O)[C@H](Cc1ccccc1)NC(=O)[C@H](CCC(=O)O)NC(=O)[C@H](CCC(=O)O)NC(=O)[C@H](CC(=O)O)NC(=O)[C@H](CC(=O)O)NC(=O)[C@H](Cc1c[nH]cn1)NC(=O)[C@H](Cc1c[nH]c2ccccc12)NC(=O)[C@H](C)NC(=O)[C@@H](N)CCSC)C(N)=O (stereo partly drawn)	–	–	C57BL/6 mouse female, ovary	dose not given, 6 h	relative to: total	tissue distribution	0.29% and 0.36% and 0.28%
N#[11C]c1ccc(-c2csc(NN=C3CCCC3)n2)cc1	–	–	C57BL/6 mouse, male	intravenous, 3 MBq, 60 min	–	uptake in adrenal gland	3.01 ± 1.22 %ID/g
CC(C)[C@@H]1NC(=O)CNC(=O)[C@H](CC(N)=O)NC(=O)[C@H](CCCNC(=N)N)NC(=O)[C@H](Cc2ccc(O)cc2)NC(=O)[C@H](C(C)C)NC(=O)[C@@H](NC(=O)[C@@H](NC(=O)[C@H](CC(N)=O)NC(=O)[C@H](Cc2c[nH]c3ccccc23)NC(=O)[C@H](C)NC(=O)[C@H](Cc2ccccc2)NC(=O)CNC(=O)[C@H](CCCCN)NC(=O)[C@H](Cc2ccccc2)NC(=O)[C@H](Cc2ccccc2)NC(=O)[C@H](CCCCN)NC(=O)OCC2c3ccccc3-c3ccccc32)C(C)C)CSSC[C@@H](C(=O)N[C@@H](Cc2c[nH]cn2)C(=O)N[C@@H](CCCNC(=N)N)C(=O)N[C@@H](CCCNC(=N)N)C(=O)N[C@@H](C)C(=O)N[C@@H](CC(N)=O)C(N)=O)NC(=O)[C@H](C(C)C)NC(=O)[C@H](CCCNC(=N)N)NC1=O	–	HPLC	mouse kidney homogenate 50 mg/mL	6.00 h, 37 °C	–	peptide remaining	58.2% and 62.1% and 54.4%
CC[C@H](C)[C@H](NC(=O)[C@H](CCCCN)NC(=O)CNC(=O)[C@H](CC(C)C)NC(=O)[C@H](Cc1ccccc1)NC(=O)[C@H](CCCCN)NC(=O)[C@H](CO)NC(=O)[C@H](Cc1ccccc1)NC(=O)[C@H](Cc1c[nH]c2ccccc12)NC(=O)[C@H](CCC(N)=O)NC(=O)[C@@H](NC(=O)[C@H](Cc1ccccc1)NC(=O)CCCCCNC(=O)CN1CCN(CC(=O)O)CCN(CC(=O)O)CCN(CC(=O)O)CC1)C(C)C)C(=O)N[C@@H](CCC(=O)O)C(=O)N1CCC[C@H]1C(=O)N[C@@H](CC(=O)O)C(=O)N[C@H](C(=O)N[C@@H](CO)C(=O)N[C@@H](CCC(N)=O)C(=O)N[C@H](C(=O)N[C@@H](CCC(N)=O)C(=O)N[C@@H](CC(=O)O)C(=O)N1CCC[C@H]1C(=O)N[C@@H](CC(N)=O)C(=O)N[C@@H](CC(=O)O)C(=O)N[C@@H](CCC(N)=O)C(=O)N[C@@H](Cc1ccc(O)cc1)C(=O)N[C@@H](CCC(=O)O)C(=O)N1CCC[C@H]1C(=O)N[C@@H](Cc1ccccc1)C(=O)O)C(C)C)C(C)C [copper-64 labelled]	–	dynamic PET	mouse, CT26 tumour, untreated, tumour	intravenous, 100 µCi/mouse, 50 s	–	SUVmean	0.49 SUV
C=Cc1c(C)c2cc3nc(c(CC(=O)[O-])c4[n-]c(cc5nc(cc1[n-]2)C(C)=C5CC)c(C)c4C(=O)[O-])C(CCC(=O)[O-])C3C.[Cu+2].[Na+].[Na+].[Na+] (stereo not drawn)	–	–	Wistar rat, male	oral, 250 mg/kg daily, 28 days	–	serum cholesterol	46.2 ± 5.78 mg/dL
CSCC[C@H](NC(=O)CNC(=O)[C@H](CCCCN)NC(=O)[C@H](CC(C)C)NC(=O)[C@@H]1CCCN1C(=O)[C@H](CO)NC(=O)[C@H](Cc1c[nH]cn1)NC(=O)[C@H](Cc1c[nH]c2ccccc12)NC(=O)[C@H](CCCNC(=N)N)NC(=O)[C@H](CC(C)C)NC(=O)[C@H](CCCNC(=N)N)NC(=O)[C@H](Cc1c[nH]c2ccccc12)NC(=O)[C@H](CS)NC(=O)CCCCCNC(=O)CN1CCN(CC(=O)O)CCN(CC(=O)O)CCN(CC(=O)O)CC1)C(=O)O [copper-64 labelled]	–	PET	C57BL/6J mice, B16-F10 tumour, kidney	intravenous, 38 h	–	tissue uptake	2.8 ± 0.29 %ID/g
CC(CCC(=O)NCC(=O)O)C1CCC2C3CCC4CC(OC5OC(C(=O)O)C(O)C(O)C5O)CCC4(C)C3CC(O)C12C (stereo not drawn)	–	–	men, T/C genotype, plasma	dose not given, geometric mean	–	plasma concentration	138 ng/mL
CC[C@H](C)[C@@H]1NC(=O)[C@H](CO)NC(=O)C(C)(CCCCN)NC(=O)[C@@H]2CSSC[C@@H](C(=O)N[C@@H](Cc3ccc(O)cc3)C(N)=O)NC(=O)[C@H](CCCCN)NC(=O)[C@@H]3CSSC[C@H](NC(=O)[C@H](CCCNC(=N)N)NC(=O)C(C)(CC(C)C)NC(=O)[C@H](CC(=O)O)NC(=O)[C@H](CC(=O)O)NC(=O)[C@H](CCC(=O)O)NC(=O)[C@H](CC(N)=O)NC(=O)[C@H](Cc4c[nH]c5ccccc45)NC(=O)C(C)(CC)NC(=O)CNC(=O)[C@H](CC(N)=O)NC(=O)[C@@H](NC(=O)CNC(=O)[C@H](Cc4ccccc4)NC(=O)CN)CSSC[C@H](NC(=O)[C@H](Cc4ccc(O)cc4)NC(=O)CNC(=O)CNC(=O)[C@H](CCCCN)NC(=O)[C@H](Cc4ccc(O)cc4)NC(=O)[C@H]4CCCN4C(=O)[C@@H]4CCCN4C1=O)C(=O)N[C@@H](C)C(=O)N[C@@H](CCCCN)C(=O)N1CCC[C@@H]1C(=O)NCC(=O)N[C@@H](Cc1ccccc1)C(=O)N[C@@H](C(C)C)C(=O)N3)C(=O)N[C@@H](Cc1c[nH]cn1)C(=O)NC(C)(C)C(=O)N[C@@H](Cc1c[nH]cn1)C(=O)N2 (stereo partly drawn)	–	–	pronase	13.2 µM, pH 7.2, room temperature	–	half-life	0.254 days
CC(C)(C)C(=O)OCOP(=O)(OCOC(=O)C(C)(C)C)C1CCCN(O)C1=O (stereo not drawn)	BT-549	–	–	–	–	log TGI	-5.9 log M

For quick reference, copied from above:
Structure (SMILES)	target or system	test	system	setting	scale	endpoint	value
COc1cnc2cccc(N3CCc4c(cc(Cn5ccnc5)cc4-c4cn(C)nc4C(F)(F)F)C3=O)c2c1	–	–	BALB/c nude mice, MV4-11 xenograft	intraperitoneal, 50 mg/kg, day 35	–	body weight	24.6 g and 22.6 g and 25.8 g and 24.3 g and 24.5 g
CC(C)[C@H](NC(=O)[C@@H](NC(=O)[C@H](CCCNC(=N)N)NC(=O)[C@H](CCCNC(=N)N)NC(=O)[C@H](CCCNC(=N)N)NC(=O)[C@H](CCC(N)=O)NC(=O)[C@H](CCCNC(=N)N)NC(=O)[C@H](CCCNC(=N)N)NC(=O)[C@H](CCCCN)NC(=O)[C@H](CCCCN)NC(=O)[C@H](CCCNC(=N)N)NC(=O)CN)[C@@H](C)O)C(=O)N[C@H](C(=O)N[C@@H](CO)C(=O)N1CCC[C@H]1C(=O)O)[C@@H](C)O	–	–	ICR mice, female, lung	intranasal, 10 mg/kg daily, 4 weeks	–	organ weight	0.342 ± 0.029 g
